Measured values pooled from the literature.
Each numbered part is a random draw from the data of one study; scales do not carry over between parts. Changes are numbered by the printed parent chain.

Study 1 — target: CCND2, cyclin fold, Cln2 fusion (human); method: yeast growth competition, sequencing; sample: yeast; notes: weak parent motif; relative to: not given; direction: higher = stronger binding
Starting sequence: WEE1 docking peptide (human); HKTFRKLRLFDTP
Change | normalised enrichment score
T3G | 0.867
R5K L9F | -0.978
T3E | -0.482
K6G | 0.0151
F4M | 0.491
K6Y | -0.137
T3S | -0.868
K2H | 0.0459
L7H | -0.215
H1V | -0.568
P13A | -0.232
K2Y | -0.101
L7V | 0.0777
P13I | -0.0786
K2T | 0.198
T12H | 0.602
T12R | 0.202
T12Y | -0.0353
L9D | 0.12
L7N | -0.0272
P13V | 0.14
D11F | 0.115
L9Q | 0.187
H1S | 0.936
F10W | -0.0446

Study 2 — method: RNA Bind-n-Seq; molecule type: RNA; sample: in vitro; concentration: 200 nM; notes: whole 134-nt RNA, ends assumed; with: 150 mM LiCl; relative to: input library; direction: higher = stronger binding; library: 7-deaza-guanosine replaces G
Target: Ras GTPase-activating protein-binding protein 1, full length (G3BP1, Homo sapiens, UniProt Q13283)
Chain of UniProt Q13283 (whole entry, looked up): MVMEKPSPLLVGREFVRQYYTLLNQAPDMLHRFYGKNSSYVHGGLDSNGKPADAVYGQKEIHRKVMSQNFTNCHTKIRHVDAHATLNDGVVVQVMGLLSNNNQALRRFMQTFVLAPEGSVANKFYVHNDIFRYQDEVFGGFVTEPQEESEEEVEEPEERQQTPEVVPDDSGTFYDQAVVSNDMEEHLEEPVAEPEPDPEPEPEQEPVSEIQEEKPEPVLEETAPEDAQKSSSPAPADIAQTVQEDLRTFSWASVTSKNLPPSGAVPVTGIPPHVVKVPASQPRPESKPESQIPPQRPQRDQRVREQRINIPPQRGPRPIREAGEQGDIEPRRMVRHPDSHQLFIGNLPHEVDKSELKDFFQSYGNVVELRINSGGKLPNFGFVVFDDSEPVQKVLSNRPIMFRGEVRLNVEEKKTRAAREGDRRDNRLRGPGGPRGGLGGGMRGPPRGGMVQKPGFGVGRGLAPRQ
Strand | log2 enrichment
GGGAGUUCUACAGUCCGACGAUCCAAGUCCUGUGCUACACAUCGUAUGUACCGAAUCGGGUGGGUGGGAAAAAAAGGGAAAGUAUUAUGUUACGCCGUUCGGAUCUGCACUUCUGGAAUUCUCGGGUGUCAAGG | -0.276
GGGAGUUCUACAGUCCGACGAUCAGUCCUGUGCUACACAUCGUAUGUACCGAAUCGGAAAGGUUUUUUUGGUUUUUUUGGAAAGUAUUAUGUUACGCCGUUCGGAUCUGCACUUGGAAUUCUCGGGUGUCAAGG | -2.44
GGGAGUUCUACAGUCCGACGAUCGUCCUGUGCUACACAUCGUAUGUACCGAAUCGGGUUUGGGUUUUUGGGAAAAAAAGGGAAAGUAUUAUGUUACGCCGUUCGGAUCUGCACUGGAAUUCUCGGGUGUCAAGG | -0.581
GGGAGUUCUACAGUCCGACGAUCGCAGGAAGUAAAAACAAAUGGAAGUGCUUCGGAUAGUGGCAGGGGUGGGGGUUGCUAAGGAAAGGGUGGGAUGGGAGUGGGUAAAGAGUUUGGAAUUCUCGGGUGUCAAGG | -0.0401
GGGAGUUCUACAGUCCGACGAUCUGGGAGGUGGAUUUUGUUUAUUUUUUUUGCUCAUUUCCAGGGGUGGGAAUUUUUUUUUAAUAUGUGUCAUGAAUAAAGUUGUUUUUGAAAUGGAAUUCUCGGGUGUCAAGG | 0.54
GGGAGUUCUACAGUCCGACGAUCGCAGGAAGUAAAAACAAAUGGAAAUGCUUCGGAUAGUGGCAGGGGUGGGGGUUGCUAAGGAAAGGGUGGGAUGGGAGUGCGUAAAGAGUUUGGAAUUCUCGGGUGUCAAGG | 0.214
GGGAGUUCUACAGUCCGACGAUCUCAAGUCCUGUGCUACACAUCGUAUGUACCGAAUCGGGUUUGGGAAAGGGAGGGAAAGUAUUAUGUUACGCCGUUCGGAUCUGCACUUCCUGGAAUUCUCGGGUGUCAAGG | -0.45
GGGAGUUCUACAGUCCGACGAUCUCAAGUCCUGUGCUACACAUCGUAUGUACCGAAUCGGGGAAGGGGAAGGGGAAGGAAAGUAUUAUGUUACGCCGUUCGGAUCUGCACUUCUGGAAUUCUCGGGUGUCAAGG | -0.577
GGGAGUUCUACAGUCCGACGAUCCCUCAAGUCCUGUGCUACACAUCGUAUGUACCGAAUCGGUGGGGUGGGGUGGAAAGUAUUAUGUUACGCCGUUCGGAUCUGCACUUCCAGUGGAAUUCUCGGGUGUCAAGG | -0.713
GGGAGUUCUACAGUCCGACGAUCUGGCCCUGGUGGCAUGCGGGGAGGAAGAGGUGGCCUCAUGGAUCGUGGUGGUCCUGGUGGAAUGUUCAGAGGUGGCCGUGGUGGAGACAGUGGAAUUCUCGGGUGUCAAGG | 0.371
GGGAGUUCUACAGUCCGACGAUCUCCUGUGCUACACAUCGUAUGUACCGAAUCGGGGUUUUUGGGGUUUUUGGUUUUUGGGGAAAGUAUUAUGUUACGCCGUUCGGAUCUGCAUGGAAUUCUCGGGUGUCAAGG | 0.0346

Study 3 — method: EMSA with sequencing; molecule type: double-stranded DNA, one strand shown; sample: in vitro; concentration: 10 and 20 nM; relative to: negative control set to 0; direction: higher = stronger binding
Target: Hepatocyte nuclear factor 3-alpha (Foxa1, Mus musculus, UniProt P35582, residues 1-468, full length assumed)
Chain of UniProt P35582 (whole entry, looked up): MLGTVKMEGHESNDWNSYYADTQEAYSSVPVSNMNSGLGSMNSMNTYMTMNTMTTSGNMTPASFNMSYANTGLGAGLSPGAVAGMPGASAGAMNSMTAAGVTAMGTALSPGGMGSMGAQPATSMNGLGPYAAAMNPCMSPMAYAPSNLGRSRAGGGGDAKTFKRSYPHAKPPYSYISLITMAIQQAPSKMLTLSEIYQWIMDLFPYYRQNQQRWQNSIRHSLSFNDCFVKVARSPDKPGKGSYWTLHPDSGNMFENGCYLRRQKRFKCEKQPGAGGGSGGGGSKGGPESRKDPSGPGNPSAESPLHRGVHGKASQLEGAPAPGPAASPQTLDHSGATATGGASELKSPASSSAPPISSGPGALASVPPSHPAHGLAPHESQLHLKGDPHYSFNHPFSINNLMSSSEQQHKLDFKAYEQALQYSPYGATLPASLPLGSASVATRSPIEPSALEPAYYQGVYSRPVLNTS
Notes: whole designed probe, mean of two concentrations, ends assumed
Strand | normalised bound fraction [ratio]
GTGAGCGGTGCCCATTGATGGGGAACATTCTTGGGGGTGCGCTGATTCCAGGCTCTCGCCCCAGCTTTGGGCCCAGGGCAGTGAGCATGTGTAGTTACTTATCTAGGATTGCAACCTGAGTCAACAGTGAAACCAGGAAGTGAACTCGGGGTCCGGCATTGTATGGAAAGTTGGGTGTATTTACTTTTCTCTTAAAGCAAACTTTGATTGACTCTTTAATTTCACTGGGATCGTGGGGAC | 0.472
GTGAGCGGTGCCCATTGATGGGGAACACAGCAACTAGGTAGAGAGAGTTCACAGTTTGTGAACTCTGTGAATCTGGTATCAGGCTGGCTGGGAGAAGGGCCTAAAGGGTGTGTGAAATGTAAACAAGGGCTTCCTGACGCTGCTCTGTGACTTGTGCTAAACTTTCTGGGGGTGGCAGACCCAGAGTAGTCATACCCAATCCATGAATCCAACATTCACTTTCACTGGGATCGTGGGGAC | 0.416
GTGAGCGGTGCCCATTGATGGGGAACAATGATTAGTTTACACATATACATCGCTTTTGAAGGCCCCCAAACACCAGGGGACCATAGAGATCCTTTGGACTTCATGATTCTGGGAGTGTTTGTTTGCACTGATACCTGAAGAAATAGATCTTGAGGGCCTACATTCCAACCTCTGGGCTGAAGTACCAACCTCGGGGAGAAGGAAACAAAGATCACAATATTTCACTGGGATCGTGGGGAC | 0.305
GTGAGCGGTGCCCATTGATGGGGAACATCTTCCCCCTCTTCCTTGCCCCACCAGCTCACCTTCCCGGGTTATTTGCAGATAGGAAAATAAATAAAGCCGGCATTCGTTAACCCTCTTCTGGCGCAAACTGCTGTTTGCTCTGGATGAATCATGGTCCTTTGGCGACGCCAGGCTCCGGGAGAGCAAAGATCAGCCTGCGGGCCATGATCCGGGGTGGCCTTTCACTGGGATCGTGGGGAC | 0.342
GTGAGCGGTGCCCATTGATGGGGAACACATTCTTTTTGTAATTATTCCAGGTCAAGATAGTGGCCAAAGAGGAAGTTATAAAGCAGACTAGGAAATTCTCCTAAATATATCTCCAACAGAGTAAACAAGAGATTAGGAAACTTGTCCTTCATTCAATTACACCTGGTAAACTTTTTACATTTCCCATTCTATTTTTTGCCTGTGATGTCTAAGTTGAATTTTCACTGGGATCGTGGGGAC | 0.319
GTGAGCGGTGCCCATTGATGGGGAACTGTATCCATCTGGGCAGTATCTTCTCTGGGCCTGGCCTGTCATAGGTGCTTCAGGTTTCCCCATTTGAACCAGATACCAGTCGGGTTACCGGATGTTTGCTTAAAATGAGTCATAAGGCTTCCTGCTTTCCTGTGCTGCTTCCAGCTAGGACTGATCGAATCAGTCTGGATTTTCCTTGGGGTGATCCGCAGGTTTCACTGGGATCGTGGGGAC | 0.139
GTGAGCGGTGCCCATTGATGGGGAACACAATAATTATAATATATGTAAAGGTACTTAGACGTTAATTAAAATTGCTCCATTTGAGTATACACATAAATGTGATAGCCTTTATTATCTCCCTGTTTACATATGAATGGCTTTTTTTCTAGCCCAGTGGACTAATAAATAAATCTCTGTAACTAGTAGGGTTTAGCTATGAAAGTCTGTTGCTAATGCCCCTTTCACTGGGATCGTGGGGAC | 0.271
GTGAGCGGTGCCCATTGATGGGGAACATAATCTGAGGTGGCGACTGGCCAGATAGCCTGCCCCTACTCACTCTGGCTGTAAAATAAGCCTACAGTATCCACAAGGGGAAATACTAACAGTGTAAACAAGCACATCAAGGTGCAGTCAAAGAAGCCAGGTCCCCACCGATGAGATGAAGAAAATAACCACCTAAGTCTCAGGTCCCTATATCTGCCTAATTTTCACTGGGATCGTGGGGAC | 0.32

Study 4 — method: RNA Bind-n-Seq; molecule type: RNA; sample: in vitro; concentration: not given; relative to: input RNA pool; direction: higher = stronger binding
Target: RING finger protein unkempt homolog, zinc fingers 1-6, GST-SBP tag (UNK, Homo sapiens, UniProt Q9C0B0, residues 30-357)
Notes: RNA with constant flanks, human-mouse chimeric sites, ends assumed
Target sequence (chain): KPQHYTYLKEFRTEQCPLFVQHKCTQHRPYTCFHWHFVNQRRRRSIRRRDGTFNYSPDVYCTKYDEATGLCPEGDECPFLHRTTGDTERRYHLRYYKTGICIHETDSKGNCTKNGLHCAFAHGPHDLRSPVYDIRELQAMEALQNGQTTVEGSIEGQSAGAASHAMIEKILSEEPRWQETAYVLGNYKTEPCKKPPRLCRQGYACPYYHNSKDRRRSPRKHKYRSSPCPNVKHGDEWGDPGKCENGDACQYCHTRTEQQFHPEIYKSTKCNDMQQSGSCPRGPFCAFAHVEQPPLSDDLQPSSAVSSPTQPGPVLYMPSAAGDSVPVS
Strand | bound/input enrichment
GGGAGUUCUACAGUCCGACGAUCCUGAGGAUACCACUGAAGAGACCUUAAAAGAAUCAUUUGAGGGCUCUCGUUCGGGCAGAAUAGUCACUGAUCGGGAAACUGGUUCUUCCAAAGGGUUUGGUUUUGUAGACUUUAAUAGUGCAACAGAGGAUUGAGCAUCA | 0.765 ratio
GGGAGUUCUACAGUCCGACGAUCUGGCGCCUCCCAUUUUUACUCGUGUUUUUAAGUGUAUUUUUAUAAGAUACAUGUAUUUACAAUUGAGCUUUUGUUACAUAAUGCUGAAAUGCUACUGCAAUAUUAUGAAAAUGUUUCAAUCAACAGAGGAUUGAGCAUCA | 0.0812 ratio
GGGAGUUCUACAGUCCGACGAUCUGACAAGGGCACUGCAGAGCCAUGCCUUUCCUUGACAUACAGAAAAAGUUCGGCCUUAGCCUGGACCGAUGGUUGACGUUCCUAAGCGCAGAACAGCCCUAUAAGAACGCCGCUCGGUGCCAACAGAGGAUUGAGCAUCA | 0.0797 ratio
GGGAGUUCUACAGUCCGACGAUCCUCGGCACUGGUACCCUUUACAUCGCGGAGAGCCGCCUGUCCUGGUUAGAUGGUUCGGGAUUAGGAUUCUCACUGGAAUACCCCACCAUUAGUUUACAUGCGGUGUCCAGGGACCGAAACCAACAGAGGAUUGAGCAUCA | 1.19 ratio
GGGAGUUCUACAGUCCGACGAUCGCGAACAGGACUACAGAAAUGCUGGUAAUUUCAGUCACUUGCUGAUGACUUCUGAUGUCCCAGCAAAUGUUGGCAUUGUUGACUGCUGAGAAGAUACUUCUGAGGACAUACAGCAGUGGUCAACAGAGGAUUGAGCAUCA | 0.132 ratio
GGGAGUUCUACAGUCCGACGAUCUUGGAAGGACCAGAGCCCAGUCAGCUCAAACCAUUAGUCAUACAGGCUAUGCCCACCCUAAUAGAACUAAUGAAAGACCCCAGUGUAGUUGUUCGAGACACAACAGCAUGGACUGUAGGCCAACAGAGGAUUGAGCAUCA | 0.606 ratio
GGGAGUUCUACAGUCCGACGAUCGAUCAUGAACCACCAUCAGAAAUGAAGGAUGAGACUACCAGACGAGCCAAAACAGCUGCGCUACAGAAAAGUAAACUUAACCUUGCAGAGUUCCUUAAUGAAGAUACUAAGUUAGGAAGCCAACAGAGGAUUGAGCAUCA | 0.321 ratio
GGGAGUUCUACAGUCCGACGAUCCACAGAGCAGCACCUACCUCCUCCUUCUUUCCACACCUGCAAACUCUUUUACUUGGGCUGAAUAUUUAGUGUAAUUACAUCUCAGCUUUUGAGGGCUCUGUGGCAAAUUCCCGGAUUAAACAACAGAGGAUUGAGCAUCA | 0.668 ratio
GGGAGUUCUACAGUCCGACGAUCACCUCCCAGGCCUGGGACACCCCACCCCCGCUUUUUGGAAAGUUUUUGGCGUUUCUUUUCCUUCCCCAGUUAGAAUUAUUACAGUUUCCCCCGCAAGGGUCUAUCGAAGGGCUUGACGGACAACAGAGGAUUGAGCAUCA | 25.2 ratio
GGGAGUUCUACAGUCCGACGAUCCAACAGAGUCUAGGAUGGGUUCAUUACAUGAUUCAUGAGCCAGAACCACAUAUUCUUCUCUUUAGACGACCUCUUCCAAAAGAACAACAAAAAUGAAGUUUAUCUGGGAUCAUCUAAUCUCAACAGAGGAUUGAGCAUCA | 0.166 ratio
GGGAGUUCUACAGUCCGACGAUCGAUCAUGAACCACCAUCAGAAAUGAAGAUGAGAUUACCCAGACGAGCCAAAACAGCUGCGCUACAGAAAAGUAAACUUUAACCUUGCGAGUUCCUUAAAUGAAGAUCAAGUUAAGAGAGCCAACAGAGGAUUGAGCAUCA | 0.31 ratio

Some of these lines once more (study 1):
Change | normalised enrichment score
K2Y | -0.101
T3G | 0.867
R5K L9F | -0.978
T12R | 0.202
L9Q | 0.187
F10W | -0.0446
T3E | -0.482
P13V | 0.14
